Assay results collected from several papers.
Numbered parts are unrelated; each lists some results of a single study.
Chain of UniProt P54646 (whole entry, looked up): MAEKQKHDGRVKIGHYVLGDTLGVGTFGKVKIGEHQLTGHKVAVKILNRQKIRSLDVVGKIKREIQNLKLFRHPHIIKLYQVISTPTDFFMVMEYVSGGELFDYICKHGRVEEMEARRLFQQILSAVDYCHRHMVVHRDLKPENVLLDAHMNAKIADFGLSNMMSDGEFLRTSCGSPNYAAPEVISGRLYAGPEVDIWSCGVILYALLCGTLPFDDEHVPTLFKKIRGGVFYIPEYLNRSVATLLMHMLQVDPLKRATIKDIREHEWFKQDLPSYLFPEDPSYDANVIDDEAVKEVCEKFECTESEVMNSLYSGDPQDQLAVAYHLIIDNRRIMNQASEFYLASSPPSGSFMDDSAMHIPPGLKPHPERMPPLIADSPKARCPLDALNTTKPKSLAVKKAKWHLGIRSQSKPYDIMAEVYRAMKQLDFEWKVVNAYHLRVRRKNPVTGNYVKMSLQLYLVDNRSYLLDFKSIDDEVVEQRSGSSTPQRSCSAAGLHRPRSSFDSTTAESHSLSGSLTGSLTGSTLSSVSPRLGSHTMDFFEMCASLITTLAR
Chain of UniProt P49759 (whole entry, looked up): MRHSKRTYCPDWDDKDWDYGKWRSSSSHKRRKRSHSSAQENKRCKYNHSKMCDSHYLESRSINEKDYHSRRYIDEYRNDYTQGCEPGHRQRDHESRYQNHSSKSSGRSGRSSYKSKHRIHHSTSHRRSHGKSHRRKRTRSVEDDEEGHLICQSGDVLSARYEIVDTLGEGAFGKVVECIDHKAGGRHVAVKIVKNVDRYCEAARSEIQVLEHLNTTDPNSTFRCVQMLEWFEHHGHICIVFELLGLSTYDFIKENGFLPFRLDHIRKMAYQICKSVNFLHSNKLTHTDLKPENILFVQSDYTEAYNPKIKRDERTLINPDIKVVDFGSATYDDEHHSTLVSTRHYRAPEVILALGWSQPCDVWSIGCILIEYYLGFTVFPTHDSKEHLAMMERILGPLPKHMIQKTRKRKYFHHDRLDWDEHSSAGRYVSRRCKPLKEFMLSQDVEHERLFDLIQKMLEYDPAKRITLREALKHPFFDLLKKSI
Chain of UniProt P53671 (whole entry, looked up): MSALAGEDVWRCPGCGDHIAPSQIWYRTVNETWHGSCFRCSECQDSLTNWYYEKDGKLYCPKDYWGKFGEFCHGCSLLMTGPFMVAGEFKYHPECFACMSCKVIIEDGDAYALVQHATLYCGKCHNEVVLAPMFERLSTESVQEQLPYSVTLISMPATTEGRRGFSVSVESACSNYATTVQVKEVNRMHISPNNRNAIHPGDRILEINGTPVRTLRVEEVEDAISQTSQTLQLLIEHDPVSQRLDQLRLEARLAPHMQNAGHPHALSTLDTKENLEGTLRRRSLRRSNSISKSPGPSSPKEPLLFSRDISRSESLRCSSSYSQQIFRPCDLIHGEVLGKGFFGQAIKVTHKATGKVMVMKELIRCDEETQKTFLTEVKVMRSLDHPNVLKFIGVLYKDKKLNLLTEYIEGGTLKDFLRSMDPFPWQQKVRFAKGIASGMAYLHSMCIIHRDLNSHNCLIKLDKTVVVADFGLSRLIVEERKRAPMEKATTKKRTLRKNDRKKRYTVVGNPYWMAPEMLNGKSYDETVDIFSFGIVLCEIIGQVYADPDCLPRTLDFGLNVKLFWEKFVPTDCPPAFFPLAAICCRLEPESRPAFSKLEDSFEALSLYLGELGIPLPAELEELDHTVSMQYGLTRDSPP
Chain of UniProt P51957 (whole entry, looked up): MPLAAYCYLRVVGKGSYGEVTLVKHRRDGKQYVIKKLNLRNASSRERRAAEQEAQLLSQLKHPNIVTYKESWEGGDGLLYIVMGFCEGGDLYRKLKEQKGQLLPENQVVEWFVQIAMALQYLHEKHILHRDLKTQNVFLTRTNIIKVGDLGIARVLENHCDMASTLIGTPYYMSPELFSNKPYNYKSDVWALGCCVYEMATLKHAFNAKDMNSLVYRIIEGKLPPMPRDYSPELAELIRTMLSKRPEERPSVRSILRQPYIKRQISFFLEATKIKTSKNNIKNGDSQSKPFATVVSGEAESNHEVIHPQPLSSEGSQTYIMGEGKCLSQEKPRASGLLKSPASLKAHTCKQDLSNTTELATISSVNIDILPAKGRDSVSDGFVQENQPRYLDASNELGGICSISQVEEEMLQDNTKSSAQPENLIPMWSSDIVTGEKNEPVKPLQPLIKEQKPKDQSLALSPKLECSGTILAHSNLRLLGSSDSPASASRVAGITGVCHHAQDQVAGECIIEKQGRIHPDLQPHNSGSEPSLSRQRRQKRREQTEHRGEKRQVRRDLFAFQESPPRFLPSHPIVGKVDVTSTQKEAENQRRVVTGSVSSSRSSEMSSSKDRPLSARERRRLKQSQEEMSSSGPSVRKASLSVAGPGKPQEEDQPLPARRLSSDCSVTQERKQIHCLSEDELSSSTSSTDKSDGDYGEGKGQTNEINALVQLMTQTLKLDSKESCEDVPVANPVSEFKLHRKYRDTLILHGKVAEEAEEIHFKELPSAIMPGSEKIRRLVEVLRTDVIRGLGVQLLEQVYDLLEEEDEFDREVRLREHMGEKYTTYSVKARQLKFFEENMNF
Chain of UniProt Q9BX84 (whole entry, looked up): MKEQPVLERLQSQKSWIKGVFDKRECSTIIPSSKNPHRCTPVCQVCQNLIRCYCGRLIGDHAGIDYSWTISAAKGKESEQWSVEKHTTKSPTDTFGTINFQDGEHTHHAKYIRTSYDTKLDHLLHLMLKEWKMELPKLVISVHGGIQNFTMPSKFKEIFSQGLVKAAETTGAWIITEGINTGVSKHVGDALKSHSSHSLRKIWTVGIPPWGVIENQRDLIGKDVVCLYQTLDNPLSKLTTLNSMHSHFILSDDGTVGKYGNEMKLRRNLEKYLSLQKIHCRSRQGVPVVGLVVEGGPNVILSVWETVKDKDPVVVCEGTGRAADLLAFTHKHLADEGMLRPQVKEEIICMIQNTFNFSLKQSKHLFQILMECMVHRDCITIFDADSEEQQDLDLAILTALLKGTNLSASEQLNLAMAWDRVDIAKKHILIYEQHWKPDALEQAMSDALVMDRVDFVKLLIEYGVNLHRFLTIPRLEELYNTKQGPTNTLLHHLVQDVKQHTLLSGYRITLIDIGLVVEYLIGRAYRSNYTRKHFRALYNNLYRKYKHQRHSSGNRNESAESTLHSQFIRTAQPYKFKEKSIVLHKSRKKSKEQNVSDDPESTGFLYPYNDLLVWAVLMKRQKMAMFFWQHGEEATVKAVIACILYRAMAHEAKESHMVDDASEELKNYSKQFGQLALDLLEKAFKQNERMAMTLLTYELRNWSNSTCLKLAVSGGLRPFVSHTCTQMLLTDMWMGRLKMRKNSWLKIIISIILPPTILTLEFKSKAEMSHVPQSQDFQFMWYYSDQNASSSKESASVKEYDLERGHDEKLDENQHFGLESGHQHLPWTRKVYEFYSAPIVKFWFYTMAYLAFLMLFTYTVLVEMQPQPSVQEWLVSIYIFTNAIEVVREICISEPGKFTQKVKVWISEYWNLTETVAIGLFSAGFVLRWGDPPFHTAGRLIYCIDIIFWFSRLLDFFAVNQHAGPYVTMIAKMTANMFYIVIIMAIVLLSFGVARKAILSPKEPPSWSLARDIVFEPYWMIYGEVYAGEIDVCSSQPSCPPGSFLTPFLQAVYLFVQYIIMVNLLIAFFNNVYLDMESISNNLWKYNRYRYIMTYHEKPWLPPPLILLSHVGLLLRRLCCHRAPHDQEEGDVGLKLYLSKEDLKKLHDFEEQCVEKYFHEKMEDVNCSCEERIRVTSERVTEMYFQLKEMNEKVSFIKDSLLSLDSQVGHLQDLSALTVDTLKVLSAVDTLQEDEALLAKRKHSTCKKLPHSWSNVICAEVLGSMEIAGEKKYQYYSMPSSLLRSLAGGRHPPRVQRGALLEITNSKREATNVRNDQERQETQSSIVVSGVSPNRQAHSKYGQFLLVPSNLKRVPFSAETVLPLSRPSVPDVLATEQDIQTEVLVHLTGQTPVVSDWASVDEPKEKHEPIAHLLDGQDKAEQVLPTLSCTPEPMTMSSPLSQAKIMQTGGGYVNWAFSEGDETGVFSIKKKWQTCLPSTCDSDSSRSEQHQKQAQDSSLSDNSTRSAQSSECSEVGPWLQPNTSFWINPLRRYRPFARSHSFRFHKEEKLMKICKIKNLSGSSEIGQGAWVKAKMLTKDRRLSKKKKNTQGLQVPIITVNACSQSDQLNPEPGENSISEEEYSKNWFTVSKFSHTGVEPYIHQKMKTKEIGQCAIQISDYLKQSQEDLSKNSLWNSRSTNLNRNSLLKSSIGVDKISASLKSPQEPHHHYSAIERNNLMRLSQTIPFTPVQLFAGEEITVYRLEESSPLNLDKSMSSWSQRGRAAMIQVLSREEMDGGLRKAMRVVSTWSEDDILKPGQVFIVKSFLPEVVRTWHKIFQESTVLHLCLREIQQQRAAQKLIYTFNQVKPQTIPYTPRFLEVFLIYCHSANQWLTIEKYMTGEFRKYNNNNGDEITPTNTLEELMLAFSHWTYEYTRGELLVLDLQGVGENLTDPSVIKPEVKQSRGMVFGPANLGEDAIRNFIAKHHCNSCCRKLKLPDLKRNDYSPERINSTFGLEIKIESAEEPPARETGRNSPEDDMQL

Set 1
Target: Diamine acetyltransferase 1 (Homo sapiens, UniProt P21673)
Mode: inhibitor
Tested at: 10 µM
Relative to: control
Construct (P21673 1-171): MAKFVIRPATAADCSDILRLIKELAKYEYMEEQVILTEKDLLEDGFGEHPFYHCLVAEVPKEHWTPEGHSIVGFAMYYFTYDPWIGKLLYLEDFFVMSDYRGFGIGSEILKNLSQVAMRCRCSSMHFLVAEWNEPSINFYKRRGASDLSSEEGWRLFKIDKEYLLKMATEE
The remaining activity of CC/C=C\C/C=C\C/C=C\CCCCCCCC(=O)O is reported as 80.8%.
With NC(=O)NCCC[C@H](N)C(=O)O the remaining activity was 104%.
With O=C1CCc2ccccc21 the remaining activity was 77.4%.
With CCCCCCCCCCC/C=C\CCCCC(=O)O the remaining activity was 105%.
Cn1c(=O)c2c(c3ccccc31)OC(C)(C)C=C2 gave a remaining activity of 101%.

Set 2
Target: Serine/threonine-protein kinase pim-3 (PIM3, Homo sapiens, UniProt Q86V86)
Effect on: enzyme activity
Mode: inhibitor
Tested at: 0.5 µM
Relative to: control
The remaining activity of CC(C)[C@H](CO)Nc1nc(Nc2cc(N)cc(Cl)c2)c2ncn(C(C)C)c2n1 is reported as 93%.
CNC(=O)c1cc(Oc2ccc(NC(=O)Nc3ccc(Cl)c(C(F)(F)F)c3)cc2)ccn1 gave a remaining activity of 100%.
Nc1ccc2ncnc(NCCc3ccc(Oc4ccccc4)cc3)c2c1 gave a remaining activity of 104%.
OCC(O)CCON=C1C(c2c(O)[nH]c3ccccc23)=Nc2ccccc21 (centres unmarked) gave a remaining activity of 58.5%.
With COc1cc2nccc(Oc3ccc(NC(=S)NC(=O)c4ccccc4C)cc3)c2cc1OC the remaining activity was 98.2%.
For O=C1NC(=O)C(c2cn(CCCO)c3ncccc23)=C1c1cnccn1, the remaining activity was 16.7%.
The remaining activity of Cc1nc(-c2ccccc2)c(-c2ccncc2)o1 is reported as 106%.
For CCOC(=O)c1c(C)[nH]c(/C=C2\C(=O)Nc3ccccc32)c1C, the remaining activity was 75.1%.
With O=C(CCCc1ccc(-c2ccccc2F)cc1)Nc1ccc(O)cc1 the remaining activity was 104%.
For Nc1[nH]nc2nc3ccccc3nc12, the remaining activity was 94%.
With CN(C)c1ccc(C=C2C(=O)Nc3ccccc32)cc1 the remaining activity was 102%.
COc1ccc(C(=O)Nc2sc3c(c2C(N)=O)CCCC3)cc1OC gave a remaining activity of 109%.
Cc1cccc(-c2[nH]c(C(C)(C)C)nc2-c2ccc3c(c2)OCO3)n1 gave a remaining activity of 106%.
C#Cc1cccc(Nc2ncnc3cc(OCCOC)c(OCCOC)cc23)c1 has a remaining activity of 81.4%.
For O=S(=O)(c1cccc2cnccc12)N1CCCNCC1, the remaining activity was 91.4%.
COc1cc2ncnc(Nc3ccc(Oc4ccccc4)cc3)c2cc1OC has a remaining activity of 96.9%.

Set 3
Compound: CS(=O)(=O)c1cc(C2(NC(=O)c3cncc4c3cnn4-c3ccc(F)cc3)CC2)ccn1
Effect on: cell-free assay
Technique: competition with immobilised ligand
Tested at: 1 µM
Dual specificity protein kinase CLK1 (CLK1, Homo sapiens, UniProt P49759) — remaining binding: 98%.
It gave 100% for remaining binding (Serine/threonine-protein kinase Nek4 (NEK4, Homo sapiens, UniProt P51957)).
For Transient receptor potential cation channel subfamily M member 6 (TRPM6, Homo sapiens, UniProt Q9BX84): remaining binding read 91%.
It gave 100% for remaining binding (5'-AMP-activated protein kinase catalytic subunit alpha-2 (PRKAA2, Homo sapiens, UniProt P54646)).
The remaining binding was 100% (LIM domain kinase 2 (LIMK2, Homo sapiens, UniProt P53671)).

Set 4
Cell line: mouse MPNST tumor cells
Technique: high-content immunofluorescence imaging
Item: nuclear SOX9
Tested at: 10 µM
Time: 12 h
Notes: mean of 2 replicates
Relative to: DMSO control
Direction: higher = more nuclear SOX9
For CS(=O)(=O)c1ccc([C@@H](O)[C@@H](CO)NC(=O)C(Cl)Cl)cc1, “nuclear SOX9 intensity” read 106 % of DMSO.
CC(=O)O[C@H]1C[C@@H]2CC[C@@H]3[C@H](CC[C@@]4(C)[C@H]3C[C@H]([N+]3(C)CCCCC3)[C@@H]4OC(C)=O)[C@@]2(C)C[C@@H]1N1CCCCC1 — result for “nuclear SOX9 intensity”: 104 % of DMSO.
For COc1cc2c(cc1OC)CN(C(=O)C=Cc1c(-c3ccccc3)n(C)c3ncccc13)CC2, “nuclear SOX9 intensity” read 182 % of DMSO.
Under “nuclear SOX9 intensity”, CC(C)c1ccc(CC(=O)N2CCCC(c3cccc(OC(C)(C)C(=O)O)c3)C2)cc1 (centres unmarked) is recorded as 105 % of DMSO.
For Nc1ncnc2c1c(-c1cccc(OCc3ccccc3)c1)cn2C1CC(CN2CCCC2)C1 (centres unmarked), “nuclear SOX9 intensity” read 166 % of DMSO.

Set 5
Species: human
Medium: microsomes or S9
Tested at: 2 µM
Time: 0.5 h
For Cc1nn(-c2ccc(F)c(Cl)c2)c(=O)cc1-c1cccc(N2CCCC2=O)c1, the remaining compound was 62.8%.
The remaining compound of Cn1cnc(S(=O)(=O)N2CCC(Oc3nccnc3C#N)C2)c1 (centres unmarked) is reported as greater than 99%.
Cc1ccn(CCC(=O)N(Cc2ccncc2)Cc2cccc(OCCc3ccc(F)cc3)c2)n1 gave a remaining compound of 2.42%.
O=C(c1c(-c2ccccc2)cc(=O)n2c1CCC2)N1CCCC1 gave a remaining compound of 83.7%.
CC(C)Cc1cc(C(=O)O)c(S(=O)(=O)NC(C)(C)C)s1 gave a remaining compound of 49.8%.
The remaining compound of Cc1c(Br)cc(S(=O)(=O)Nc2nnn(C)c2C)cc1C(=O)O is reported as greater than 100%.
With CN1C[C@H](NC(=O)Nc2cccc3ccccc23)C[C@H]1CO the remaining compound was greater than 99%.

Some of these lines once more (set 4):
For CS(=O)(=O)c1ccc([C@@H](O)[C@@H](CO)NC(=O)C(Cl)Cl)cc1, “nuclear SOX9 intensity” read 106 % of DMSO.
CC(=O)O[C@H]1C[C@@H]2CC[C@@H]3[C@H](CC[C@@]4(C)[C@H]3C[C@H]([N+]3(C)CCCCC3)[C@@H]4OC(C)=O)[C@@]2(C)C[C@@H]1N1CCCCC1 — result for “nuclear SOX9 intensity”: 104 % of DMSO.
For COc1cc2c(cc1OC)CN(C(=O)C=Cc1c(-c3ccccc3)n(C)c3ncccc13)CC2, “nuclear SOX9 intensity” read 182 % of DMSO.
Under “nuclear SOX9 intensity”, CC(C)c1ccc(CC(=O)N2CCCC(c3cccc(OC(C)(C)C(=O)O)c3)C2)cc1 (centres unmarked) is recorded as 105 % of DMSO.
For Nc1ncnc2c1c(-c1cccc(OCc3ccccc3)c1)cn2C1CC(CN2CCCC2)C1 (centres unmarked), “nuclear SOX9 intensity” read 166 % of DMSO.
